Assay results collected from several papers.
Compare with care: the assays were run in different laboratories. Numbers after ± are the reported error.
Gnao1: Gnao1, AlexaFluor 532 label (Rattus norvegicus, UniProt P59215)
SLBP: SLBP, phosphorylated, multiple sites (Homo sapiens, UniProt Q14493)
B1: IL34 19-242 (Homo sapiens, UniProt Q6ZMJ4); sequence looked up; chain LGNEPLEMWPLTQNEECTVTGFLRDKLQYRSRLQYMKHYFPINYKISVPYEGVFRIANVTRLQRAQVSERELRYLWVLVSLSATESVQDVLLEGHPSWKYLQEVETLLLNVQQGLTDVEVSPKVESVLSLLNAPGPNLKLVRPKALLDNCFRVMELLYCSCCKQSSVLNWQDCEVPSPQSCSPEPSLQYAATQLYPPPPWSPSSPPHSTGSVRPVRAQGEGLLP
B2: Scn2a 1080-1203 (UniProt P04775); CK2-phosphorylated; sequence looked up; chain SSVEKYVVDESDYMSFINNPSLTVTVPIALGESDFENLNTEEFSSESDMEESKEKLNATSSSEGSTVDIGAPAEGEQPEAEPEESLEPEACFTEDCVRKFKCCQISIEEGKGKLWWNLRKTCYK
B3: RGS8 GST fusion (UniProt P49804); sequence looked up; chain MAALLMPRRNKGMRTRLGCLSHKSDSCSDFTAILPDKPNRALKRLSTEEATRWADSFDVLLSHKYGVAAFRAFLKTEFSEENLEFWLACEEFKKTRSTAKLVTKAHRIFEEFVDVQAPREVNIDFQTREATRKNMQEPSLTCFDQAQGKVHSLMEKDSYPRFLRSKMYLDLLSQSQRRLS
B4: CIRBP (Homo sapiens, UniProt Q14011); PRMT1-methylated arginines in RGG region; sequence looked up; chain MASDEGKLFVGGLSFDTNEQSLEQVFSKYGQISEVVVVKDRETQRSRGFGFVTFENIDDAKDAMMAMNGKSVDGRQIRVDQAGKSSDNRSRGYRGGSAGGRGFFRGGRGRGRGFSRGGGDRGYGGNRFESRSGGYGGSRDYYSSRSQSGGYSDRSSGGSYRDSYDSYATHNE
B5: RGS16 (Homo sapiens, UniProt O15492); sequence looked up; chain MCRTLAAFPTTCLERAKEFKTRLGIFLHKSELGCDTGSTGKFEWGSKHSKENRNFSEDVLGWRESFDLLLSSKNGVAAFHAFLKTEFSEENLEFWLACEEFKKIRSATKLASRAHQIFEEFICSEAPKEVNIDHETHELTRMNLQTATATCFDAAQGKTRTLMEKDSYPRFLKSPAYRDLAAQASAASATLSSCSLDEPSHT
B6: ftsZ (Bacillus subtilis, UniProt P17865); sequence looked up; chain MLEFETNIDGLASIKVIGVGGGGNNAVNRMIENEVQGVEYIAVNTDAQALNLSKAEVKMQIGAKLTRGLGAGANPEVGKKAAEESKEQIEEALKGADMVFVTAGMGGGTGTGAAPVIAQIAKDLGALTVGVVTRPFTFEGRKRQLQAAGGISAMKEAVDTLIVIPNDRILEIVDKNTPMLEAFREADNVLRQGVQGISDLIATPGLINLDFADVKTIMSNKGSALMGIGIATGENRAAEAAKKAISSPLLEAAIDGAQGVLMNITGGTNLSLYEVQEAADIVASASDQDVNMIFGSVINENLKDEIVVTVIATGFIEQEKDVTKPQRPSLNQSIKTHNQSVPKREPKREEPQQQNTVSRHTSQPADDTLDIPTFLRNRNKRG
B7: CD40LG soluble, residues 116-261 (Homo sapiens); glycosylated; chain NMGDQNPQIAAHVISEASSKTTSVLQWAEKGYYTMSNNLVTLENGKQLTVKRQGLYYIYAQVTFCSNREASSQAPFIASLCLKSPGRFERILLRAANTHSSAKPCGQQSIHLGGVFELQPGASVFVNVTDPSQVSHGTGFTSFGLLKL
B8: Sas-4 708-901 (Drosophila melanogaster, UniProt Q9VI72); sequence looked up; chain ANSSSDFKREITNADGSKDIWYPNGNLKKISADGMNLRMLYFNKDIKETNIREGTVKYYYAETNTWHTSYLDGLEILEFPNGQTEHRRKDGTVEIHFPNNSIKIVDPSDTEKLEEWRYADGTHLVQLRNGDKILNLPNGQKEIHTKLNKRREYPDGTVKLVYPDGSQETRYSNGRVRLKDKDGKLIMDTDYAKY
B9: MIF4GD K10A (Homo sapiens, UniProt A9UHW6); sequence looked up; chain MGEPSREEYAIQSFDAETQQLLKTALKDPGAVDLEKVANVIVDHSLQDCVFSKEAGRMCYAIIQAESKQAGQSVFRRGLLNRLQQEYQAREQLRARSLQGWVCYVTFICNIFDYLRVNNMPMMALVNPVYDCLFRLAQPDSLSKEEEVDCLVLQLHRVGEQLEKMNGQRMDELFVLIRDGFLLPTGLSSLAQLLLLEIIEFRAAGWKTTPAAHKYYYSEVSD
B10: MIF4GD H44A (Homo sapiens, UniProt A9UHW6); sequence looked up; chain MGEPSREEYKIQSFDAETQQLLKTALKDPGAVDLEKVANVIVDASLQDCVFSKEAGRMCYAIIQAESKQAGQSVFRRGLLNRLQQEYQAREQLRARSLQGWVCYVTFICNIFDYLRVNNMPMMALVNPVYDCLFRLAQPDSLSKEEEVDCLVLQLHRVGEQLEKMNGQRMDELFVLIRDGFLLPTGLSSLAQLLLLEIIEFRAAGWKTTPAAHKYYYSEVSD
B11: TJP1 PDZ3-SH3-GuK; chain SMKLVKFRKGDSVGLRLAGGNDVGIFVAGVLEDSPAAKEGLEEGDQILRVNNVDFTNIIREEAVLFLLDLPKGEEVTILAQKKKDVYRRIVESDVGDSFYIRTHFEYEKESPYGLSFNKGEVFRVVDTLYNGKLGSWLAIRIGKNHKEVERGIIPNKNRAEQLASVQYTLPKTAGGDRADFWRFRGLRSSKRNLRKSREDLSAQPVQTKFPAYERVVLREAGFLRPVTIFGPIADVAREKLAREEPDIYQIAKSEPRDAGTDQRSSGIIRLHTIKQIIDQDKHALLDVTPNAVDRLNYAQWYPIVVFLNPDSKQGVKTMRMRLCPESRKSARKLYERSHKLRKNNHHLFTTTINLNSMN

`NYLAWYQ` has an inhibition of 28% (peptide, human polyclonal IgM RF STR; concentration not given, 5 µg/mL mAb II-481 coated, added: RF at 50% max binding concentration).
For `psbB C terminus (Thermosynechococcus elongatus)`, the Kd was 53.92 ± 0.41 µM (psb28 2-116 (Thermosynechococcus elongatus, UniProt Q8DLJ8); NMR titration; slow exchange).
The Kd of `SKTRGKAKVTGCWK (TNNT2 275-288 R286C (Homo sapiens, UniProt P45379-6); sequence looked up)` is reported as 6.26 µM (TPM1 (Oryctolagus cuniculus, UniProt P58772); SPR; peptide; pH 7.0, KCl 0.1 M).
`B1 (IL34 19-242)` gave a Kd of 0.0081 µM (CSF1R Fc fusion D1-D5 20-512 (Homo sapiens, UniProt P07333); SPR; pH 7.4, NaCl 0.15 M).
With `WKLGFFKRKYEKM (ITGA2 cytoplasmic peptide 1154-1166 (x); EDANS label)` the Kd was 6 µM (RASA1 714-1047 (Homo sapiens, UniProt P20936); fluorescence polarisation; peptide; added: EDANS peptide 5 µM).
The Kd of `acpP, triclosan-pantetheine probe on Ser (Escherichia coli, UniProt P0A6A8)` is reported as 0.7119 ± 0.0013 µM (fabI 1-262 (Escherichia coli, UniProt P0AEK4); ITC).
`PGYPNGLLSGDEDFSSIADMDFSALLSQISS (RELA 521-551 L523Y (Homo sapiens, UniProt Q04206); sequence looked up)` has a Kd of 15 ± 3 µM (TFB1 1-115 (Saccharomyces cerevisiae, UniProt P32776); ITC; peptide; pH 7.4, 25 °C).
`DIIRNIARHLAQVGDSMDRS (BID BH3 peptide, 20-mer (Homo sapiens))` has a Kd of 0.79 µM (BCL2L1 1-200 (Homo sapiens, UniProt Q07817-1); ITC; peptide; pH 8.0, 25 °C, one-site model).
The Vmax/Km of `UGT1A9 (Homo sapiens, UniProt O60656)` is reported as 274 µL/min/mg (COc1cc2c(=O)c(-c3ccc(O)cc3)coc2cc1O; steady-state kinetics; pH 7.4, 37 °C).
`Ac-KSKQTTFPAYNPPLYNTVSE-NH2 (spd1 49-68 (Schizosaccharomyces pombe, UniProt Q10585); N-acetyl, C-amide)` gave a Kd of 3400 ± 1100 µM (pcn1 1-260 (Schizosaccharomyces pombe, UniProt Q03392); NMR titration; peptide; pH 7.4, NaCl 100 mM).
`B2 (Scn2a 1080-1203)` gave a Kd of 0.0009 µM (Ank3 1-981 (Rattus norvegicus, UniProt O70511); SPR; pH 7.4, 25 °C, NaCl 150 mM).
The Kd of `B3 (RGS8 GST fusion)` is reported as 0.024 µM (Gnao1; flow cytometry; pH 8.0, added: GDP-AlF4-).
For `B4 (CIRBP)`, the Kd was 1 µM (TNPO3 (Homo sapiens, UniProt Q9Y5L0); ITC; pH 7.5, 25 °C, NaCl 150 mM).
The Kd of `EDGGSFWYGAMKALAG (designed peptide)` is reported as 3.69 µM (CIB1 (Homo sapiens, UniProt Q99828); ITC; peptide; 25 °C, added: CaCl2 0.1 mM).
For `SQSVLYS`, the inhibition was 0% (peptide, human polyclonal IgM RF STR; concentration not given, 5 µg/mL mAb II-481 coated, added: RF at 50% max binding concentration).
The Kd of `B5 (RGS16)` is reported as 0.037 µM (Gnao1; flow cytometry; pH 8.0, added: GDP-AlF4-).
`B6 (ftsZ)` has a Kd of 0.038 µM (UgtP (Bacillus subtilis, UniProt P54166); BLI; pH 8.0, 30 °C, NaCl 100 mM, without UDP-glc).
With `B7` the Kd was 0.0076 µM (CD40 extracellular domain , Fc fusion (Homo sapiens); SPR).
`KELVALTPPSPFRD (Grm5)` has a Kd of 15.8 ± 1.6 µM (Homer1 (Rattus norvegicus, UniProt Q9Z214); ITC; peptide).
For `B8 (Sas-4 708-901)`, the Kd was 28.2 µM (Plk4 PB1-PB2 382-602 (Drosophila melanogaster, UniProt O97143); MST; partially purified labeled partner).
`Bmper (Mus musculus, UniProt Q8CJ69)` gave a Kd of 0.0014 ± 0.0004 µM (Chrd (Mus musculus, UniProt Q9Z0E2); SPR; one-to-one fit).
The Kd of `B9 (MIF4GD K10A)` is reported as 2.15 ± 0.9 µM (SLBP; SPR; pH 7.4, 25 °C, NaCl 150 mM).
`KFKESVFENAYVIYSSMLYR (FGF14 149-168 Y158A (Homo sapiens, UniProt Q92915-2); sequence looked up)` has a Kd of 7.02 µM (FGF14 64-252 (Homo sapiens, UniProt Q92915-2); SPR; peptide; 25 °C).
For `B10 (MIF4GD H44A)`, the Kd was 15.6 ± 5.4 µM (SLBP; SPR; pH 7.4, 25 °C, NaCl 150 mM).
The Kd of `ARTKQTARKS (histone H3 2-11 (UniProt P68431); acetylated K9; sequence looked up)` is reported as 32.2 µM (MLLT1 1-148 (Homo sapiens, UniProt Q03111); ITC; peptide; pH 7.5, 15 °C, NaCl 500 mM).
For `B11 (TJP1 PDZ3-SH3-GuK)`, the Kd was 3 ± 1.1 µM (OCLN 383-522 S408A, fluorescent label (Homo sapiens, UniProt Q16625); MST).
